{"data": "Results of several laboratories", "note": "Numbered parts are unrelated; each lists some results of a single study."}
{"data": "Sample 1", "target": "Ras GTPase-activating protein-binding protein 1, RRM domain (G3BP1, Homo sapiens, UniProt Q13283)", "technique": "RNA Bind-n-Seq", "form": "RNA", "sample": "in vitro", "tested at": "1 µM", "notes": "whole 134-nt RNA, ends assumed", "with": "150 mM KCl", "relative to": "input library", "reading": "higher = stronger binding", "shared flanks, not repeated": "GGGAGUUCUACAGUCCGACGAUC … UGGAAUUCUCGGGUGUCAAGG", "UniProt Q13283, sequence (whole entry, looked up)": "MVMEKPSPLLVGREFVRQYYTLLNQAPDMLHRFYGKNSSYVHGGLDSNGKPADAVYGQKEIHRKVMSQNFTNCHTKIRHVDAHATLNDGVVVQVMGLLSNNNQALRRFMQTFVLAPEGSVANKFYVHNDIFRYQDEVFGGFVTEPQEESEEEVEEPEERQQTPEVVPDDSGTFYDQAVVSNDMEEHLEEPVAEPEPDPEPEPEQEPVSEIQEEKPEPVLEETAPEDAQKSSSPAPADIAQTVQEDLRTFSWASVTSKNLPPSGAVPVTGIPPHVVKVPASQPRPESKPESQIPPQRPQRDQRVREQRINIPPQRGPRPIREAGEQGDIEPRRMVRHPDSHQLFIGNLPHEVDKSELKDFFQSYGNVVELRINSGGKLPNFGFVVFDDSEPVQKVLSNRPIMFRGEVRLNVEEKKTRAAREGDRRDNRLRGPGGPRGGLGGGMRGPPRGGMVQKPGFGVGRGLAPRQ"}
{"Strand": "GCAGGAAGUAAAAACAAAUGGAAAUGCUUCGGAUAGUGGCAGGGGUGGGGGUUGCUAAGGAAAGGGUGGGAUGGGAGUGCGUAAAGAGUU", "log2 enrichment": 1.06}
{"Strand": "CAAGUCCUGUGCUACACAUCGUAUGUACCGAAUCGGGGAAAGGAAAGGGAAAGGGAAAGUAUUAUGUUACGCCGUUCGGAUCUGCACUUC", "log2 enrichment": -0.121}
{"Strand": "GAUGAGACAGAUGCUUCAUCAGCAGUGAAAGUGAAAAGAGCAGUCCAGAAAACAUCCGAUUUAAUAGUGUUGGGUCUCCCAUGGAAAACA", "log2 enrichment": -0.35}
{"Strand": "CAAGUCCUGUGCUACACAUCGUAUGUACCGAAUCGGGAAAGGGAAAGGAAAGGGGAAAGUAUUAUGUUACGCCGUUCGGAUCUGCACUUC", "log2 enrichment": 0.0815}
{"Strand": "GCAGGAAGUAAAAACAAAUGGAAAUGCUUCGGAUAGUGGCAGGGGUGGGGGUAGCUAAGGAAAGGGUGGGAUGGGAGUGGGUAAAGAGUU", "log2 enrichment": 0.775}
{"Strand": "AGUCCUGUGCUACACAUCGUAUGUACCGAAUCGGGGUGGGGUGGGGUUUUUUUGGGGAAAGUAUUAUGUUACGCCGUUCGGAUCUGCACU", "log2 enrichment": 0.585}
{"Strand": "AAGUCCUGUGCUACACAUCGUAUGUACCGAAUCGGGUUUUGGUUUUGGUUUUGGGGAAAGUAUUAUGUUACGCCGUUCGGAUCUGCACUU", "log2 enrichment": -0.331}
{"Strand": "UGGGAGGUGGAUUUUGUUUAUUUUUUUAGCUCAUUUCCAGGGGUGGGAAUUUUUUUUUAAUAUCUGUCAUGAAUAAAGUUGUUUUUGAAA", "log2 enrichment": 1.26}
{"Strand": "AAGUCCUGUGCUACACAUCGUAUGUACCGAAUCAAACCCAAAUUUAAAUUUUUAAAAAAGUAUUAUGUUACGCCGUUCGGAUCUGCACUU", "log2 enrichment": -0.547}
{"data": "Sample 2", "target": "RING finger protein unkempt homolog, zinc fingers 1-6, GST-SBP tag (UNK, Homo sapiens, UniProt Q9C0B0, residues 30-357)", "technique": "RNA Bind-n-Seq", "form": "RNA", "sample": "in vitro", "tested at": "not given", "notes": "RNA with constant flanks, human and mouse sites, ends assumed", "relative to": "input RNA pool", "reading": "higher = stronger binding", "shared flanks, not repeated": "GGGAGUUCUACAGUCCGACGAUC … CAACAGAGGAUUGAGCAUCA", "Residues (chain)": "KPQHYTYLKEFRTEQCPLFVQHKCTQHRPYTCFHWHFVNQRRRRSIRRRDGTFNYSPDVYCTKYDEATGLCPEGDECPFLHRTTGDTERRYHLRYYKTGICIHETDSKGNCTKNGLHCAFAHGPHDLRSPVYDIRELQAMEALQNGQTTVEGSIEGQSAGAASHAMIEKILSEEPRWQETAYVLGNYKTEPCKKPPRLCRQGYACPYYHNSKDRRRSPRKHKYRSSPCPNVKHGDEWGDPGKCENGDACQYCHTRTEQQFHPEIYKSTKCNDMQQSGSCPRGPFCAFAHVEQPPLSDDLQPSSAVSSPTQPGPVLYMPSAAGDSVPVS"}
{"Strand": "UUAUGGUGCACUUUUUCGCUAUUUAAGUUGGAUAUUUCUCUACAUUCCUGAAACAAUUUUUAGGUUUUUUUUGUACUAGAAAAUGCAGGCAGUGUUUUCACAAAAGUAAAUGUACAGUGA", "bound/input enrichment [ratio]": 1.2}
{"Strand": "AAUCAAGUUCUAUUCCAGACUAACGGUGGGCCUGGGCUUUAUAUUUUUAUGUAAACUAUUUUUAGACUGGAGGAUUUGGUUUUCAGAGGAAAGCUUUACGCAUAAUUAAACCAUGGGAGU", "bound/input enrichment [ratio]": 1.43}
{"Strand": "CAAGUUGGUGACCGUUGUUAUGAUGAAAAAAUGUAUGAUGCUGCUAAGUUGUUGUACAAUAAUGUUUCCAAUUUUGGACGUUUGGCAUCUACCCUGGUUCACCUGGGUGAAUAUCAGGCA", "bound/input enrichment [ratio]": 0.172}
{"Strand": "CCAAAUGGUGUUAUCCCUUUUCAUGGAUUUUCAAUGUAUGUUGCACCACUUUGUUUUCUAUACCAUGAACCUUCCAAAUUGUAUCAGAUAUUCCGUGAGAUGUAUGUGCGUUUUUUCUUC", "bound/input enrichment [ratio]": 0.187}
{"Strand": "UCUUGUUCAUCCAGCCUGAGUGCUCUGAGCCUCGAUGAGCCAUUUAUACAGAAAGAUGUGGAAUUAAGAAUAAUGCCUCCAGUUCAGGAAAAUGACAAUGGGAAUGAAACAGAAUCAGAG", "bound/input enrichment [ratio]": 0.0958}
{"Strand": "AAAAUAAAAAUGCAAAUGGUGGAGAAAAAUAUGGAACAACAAAAAGAAAACAUGGAGAAUCUUAAAAGUCUAAAAAUUGAAGCAGAAAAUAAGUAUGAUACAAUUAAAUUGAAGAUUAAU", "bound/input enrichment [ratio]": 0.681}
{"Strand": "AACUUCUCUGACUACAUCCGUGGAGGCAUCGUCAGUCAGGUCAAAGUACCGAAAAAGAUUAGUUUUAAAUCCUUGCCAGCAUCACUGGUAGAGCCUGACUUUGUGAUGACUGACUUUGCC", "bound/input enrichment [ratio]": 0.586}
{"Strand": "GAGGAGGACCAGAGGACUGGGAAGCCUCUAGAAAAAGAAAAUCAGGAAUCUCUGAGGUCUCUUGAUGAAAACCAGGAGACAAUUGUACUGCUAGAAAGCAAGAACCAGAGGCCACUGAGA", "bound/input enrichment [ratio]": 0.371}
{"data": "Sample 3", "target": "Prothrombin, mature alpha-thrombin (F2, Homo sapiens, UniProt P00734)", "technique": "aptamer microarray, sandwich", "form": "DNA with 2'F-ANA", "sample": "in vitro", "tested at": "200 nM", "notes": "whole 15-mer aptamer, many near background", "with": "Cy3 exosite-II aptamer, 400 nM", "reading": "higher = stronger binding", "strand": "GGTTGGTGTGGTTGG"}
{"Modification": "2'F-ANA at 1 3 4 5 12 13 14", "mean fluorescence intensity [a.u.]": 43.3}
{"Modification": "2'F-ANA at 3 5 6 12 15", "mean fluorescence intensity [a.u.]": 249}
{"Modification": "2'F-ANA at 3 4 7 8 13 14", "mean fluorescence intensity [a.u.]": 391}
{"Modification": "2'F-ANA at 1 3 4 6 11 12", "mean fluorescence intensity [a.u.]": 303}
{"Modification": "2'F-ANA at 5 6 11 12 14", "mean fluorescence intensity [a.u.]": 56.7}
{"Modification": "2'F-ANA at 2 4 5 7 8 9 10 11", "mean fluorescence intensity [a.u.]": 57.7}
{"Modification": "2'F-ANA at 5 7 8 9 10 13", "mean fluorescence intensity [a.u.]": 44.7}
{"Modification": "2'F-ANA at 1 4 5 6 8 9 11 12 13", "mean fluorescence intensity [a.u.]": 63.7}
{"Modification": "2'F-ANA at 3 5 11 12 14 15", "mean fluorescence intensity [a.u.]": 57.3}
{"Modification": "2'F-ANA at 2 4 6 7 9 12 14", "mean fluorescence intensity [a.u.]": 103}
{"Modification": "2'F-ANA at 3 8 14", "mean fluorescence intensity [a.u.]": 667}
{"Modification": "2'F-ANA at 1 4 5 6 10 12 13 15", "mean fluorescence intensity [a.u.]": 45}
{"Modification": "2'F-ANA at 2 3 7 8 9 14 15", "mean fluorescence intensity [a.u.]": 538}
{"Modification": "2'F-ANA at 1 2 3 5 13", "mean fluorescence intensity [a.u.]": 109}
{"Modification": "2'F-ANA at 1 2 3 5 6 8 10 11 13 15", "mean fluorescence intensity [a.u.]": 86.8}
{"Modification": "2'F-ANA at 1 3 4 7 8 9 11 12 13 14", "mean fluorescence intensity [a.u.]": 79.8}
{"Modification": "2'F-ANA at 2 5 6 9 10 11", "mean fluorescence intensity [a.u.]": 55.2}
{"data": "Sample 4", "target": "RNA binding protein fox-1 homolog 2, RRM domain, GST-SBP tag (RBFOX2, Homo sapiens, UniProt O43251-10, residues 100-194)", "technique": "RNA Bind-n-Seq", "form": "RNA", "sample": "in vitro", "tested at": "365 nM", "notes": "natural RNA segment, single round, ends assumed", "relative to": "no-protein control", "reading": "higher = stronger binding", "shared flanks, not repeated": "GGGAGUUCUACAGUCCGACGAUC … UGGAAUUCUCGGGUGCCAA", "Target sequence (chain)": "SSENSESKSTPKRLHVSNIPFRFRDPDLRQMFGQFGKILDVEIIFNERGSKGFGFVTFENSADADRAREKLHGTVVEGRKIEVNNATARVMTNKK"}
{"Strand": "UUUGUGGCUGUUUAAGUCACCAACAAUAGAGUCAGGGUAAAGAAUAAAAACACUUUCAUAGCCUCAUUCAUUCACUUAGAAGUGGUAAUAAUUUUUCCCUAAUGAUACCA", "RBNS enrichment (R)": 0.308}
{"Strand": "CUGCAUGAAUCCGUGUGGCUGUCGUCUUUGUUUACCAUGGCUGCUGCUGUGGGACUGUUUUUUCCUCUGACAUGCCAAAUGUAACUUCUGUAAGUGGUGGAGAGUGCUGU", "RBNS enrichment (R)": 15.3}
{"Strand": "UAGAAUGAAUAAAUUACUGAUAAGGUUACAAAUAGGUAAAUGUCACACUUCUGUUAAAAUGCAGGAGGUAGUGUCAUAAUGCCGUCUUUAUAUUCUUAAUAAAUAGCACU", "RBNS enrichment (R)": 0.305}
{"Strand": "CUAUCUCUUUGUCACUUGCUGGUACAGCUAGUUUGUUUCACUUGCACAUUUGUACAUAUAUCUAAUGUUUUCAAGUGCCUUACUUGUUUAAACUCUGACUUCAAAGGUUU", "RBNS enrichment (R)": 0.389}
{"Strand": "AUUGGUAUAGCAGUGGUAUUUGCAGACUGGGAUCAUAAGGAGCCCUUAAAUACUUGUUAUUGACUGGGGUUAUUUUUAUGCUGUAGCAAAUGUGACAGGCUCUUUUUAGC", "RBNS enrichment (R)": 0.412}
{"Strand": "UACUUUUCUGUAUUCCCAAGGAAUGCCUUCCUGUCUUAUUUUAGCCAAAACAAACUGGUUCCAUGCCUUCCUUGCAGUGAACGUUACAAUGGAUGUGGUUGUCAAUGUGA", "RBNS enrichment (R)": 0.329}
{"Strand": "CCAGACAAGGAGAGCGGAGGAGGAAGUCAUGGGAACGCAGCCUCCAGUUGUAGCAGGUUUCACUAUUCCUAUGCUGGGGUACACAGUGAGAGUACUCACUUUUCACUUGU", "RBNS enrichment (R)": 0.555}
{"Strand": "CUAUUACAAUCACUGUGUGUGUGUCUUUUCUUAGCAAAGGCGUUUUAAAACUUGAGCCUGGACCUUGGGGUCCUGUAGUGUGUGGAUUCCAAGGCCUUGCCCUCAGAGCA", "RBNS enrichment (R)": 3.64}
{"note": "Repeated from above (sample 3):"}
{"Modification": "2'F-ANA at 1 4 5 6 10 12 13 15", "mean fluorescence intensity [a.u.]": 45}
{"Modification": "2'F-ANA at 1 4 5 6 8 9 11 12 13", "mean fluorescence intensity [a.u.]": 63.7}
{"Modification": "2'F-ANA at 1 2 3 5 13", "mean fluorescence intensity [a.u.]": 109}
{"Modification": "2'F-ANA at 3 4 7 8 13 14", "mean fluorescence intensity [a.u.]": 391}
{"Modification": "2'F-ANA at 2 5 6 9 10 11", "mean fluorescence intensity [a.u.]": 55.2}
{"Modification": "2'F-ANA at 3 5 6 12 15", "mean fluorescence intensity [a.u.]": 249}
